# Results of several laboratories.
# Each numbered part is a random draw from the data of one study; scales do not carry over between parts. Substitutions count along the parent as printed.

# Block 1
# Target: Sal-like protein 4, full length isoform A (SALL4, Homo sapiens, UniProt Q9UJQ4, residues 1-1053)
# Sequence of UniProt Q9UJQ4 (whole entry, looked up): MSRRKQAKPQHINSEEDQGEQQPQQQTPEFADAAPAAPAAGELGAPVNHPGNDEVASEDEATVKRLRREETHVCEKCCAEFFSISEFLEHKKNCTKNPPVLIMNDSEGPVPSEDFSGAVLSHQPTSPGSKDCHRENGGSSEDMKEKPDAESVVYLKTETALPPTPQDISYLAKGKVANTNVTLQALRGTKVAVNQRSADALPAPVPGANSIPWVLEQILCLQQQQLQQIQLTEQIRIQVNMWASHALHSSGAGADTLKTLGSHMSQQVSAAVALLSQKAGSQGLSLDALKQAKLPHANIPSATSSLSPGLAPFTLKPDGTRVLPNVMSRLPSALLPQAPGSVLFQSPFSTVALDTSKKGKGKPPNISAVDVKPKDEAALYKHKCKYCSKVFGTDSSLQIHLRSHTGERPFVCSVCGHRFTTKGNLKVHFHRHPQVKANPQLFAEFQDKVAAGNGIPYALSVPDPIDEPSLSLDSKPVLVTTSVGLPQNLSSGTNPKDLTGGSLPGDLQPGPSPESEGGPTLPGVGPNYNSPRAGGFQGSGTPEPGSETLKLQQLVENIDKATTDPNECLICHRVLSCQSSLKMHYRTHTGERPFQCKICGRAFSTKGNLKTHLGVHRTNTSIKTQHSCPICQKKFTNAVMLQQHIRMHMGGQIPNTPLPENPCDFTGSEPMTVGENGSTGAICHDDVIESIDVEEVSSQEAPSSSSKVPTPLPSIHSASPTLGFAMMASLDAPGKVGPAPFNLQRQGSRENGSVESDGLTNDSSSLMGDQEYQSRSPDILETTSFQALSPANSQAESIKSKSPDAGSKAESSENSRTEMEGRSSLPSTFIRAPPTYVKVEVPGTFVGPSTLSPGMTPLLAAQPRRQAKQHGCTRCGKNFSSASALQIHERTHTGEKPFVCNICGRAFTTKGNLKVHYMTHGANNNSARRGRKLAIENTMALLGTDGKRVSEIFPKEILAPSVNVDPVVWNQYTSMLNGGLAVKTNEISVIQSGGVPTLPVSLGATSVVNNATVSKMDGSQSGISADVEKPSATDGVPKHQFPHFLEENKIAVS
# Technique: universal PBM
# Molecule type: double-stranded DNA, one strand shown
# Matrix: in vitro
# Tested at: 600 nM
# Setting: 8-mer, flanks averaged, mean of replicates
# Direction: higher = stronger binding
Sequence,E-score
CTACCACA,0.119
GAAGGTTA,0.0627
CAAGGTGG,-0.2
AGCTCTAA,-0.000165
CTTATGGC,0.129
ACTGAGCT,-0.193
AAAGAGGT,0.107
AAGATCAT,0.168

# Block 2
# Target: CCNB1, cyclin fold, Cln2 fusion (human)
# Technique: yeast growth competition, sequencing
# Matrix: yeast
# Setting: weak parent motif
# Relative to: not given
# Direction: higher = stronger binding
# Starting sequence: CDC6 docking peptide (human); TLKGRRLVFDNQL
Variant,normalised enrichment score
TLKGRREVFDNQL [L7E],0.543
TLKGRQLVFDNQL [R6Q],0.576
TLKGRDLVFDNQL [R6D],-0.435
TLKGRRLVFDYQL [N11Y],0.307
TLKGRALVFDNQL [R6A],0.117
TLKGRRLVFYNQL [D10Y],0.559
TLKGRRLVPDNQL [F9P],1.14
VLKGRRLVFDNQL [T1V],1.15
TLAGRRLVFDNQL [K3A],0.161
TLKYRRLVFDNQL [G4Y],-0.446

# Block 3
# Target: Fragile X messenger ribonucleoprotein 1, C-terminal low-complexity region (Fmr1, Mus musculus, UniProt P35922)
# Technique: RNA Bind-n-Seq
# Molecule type: RNA
# Matrix: in vitro
# Tested at: 200 nM
# Setting: whole 134-nt RNA, ends assumed
# Together with: 150 mM KCl
# Relative to: input library
# Direction: higher = stronger binding
# Constant ends, left off below: GGGAGUUCUACAGUCCGACGAUC … UGGAAUUCUCGGGUGUCAAGG
Sequence,log2 enrichment
GCAGGAAAUAAAAACAAAUGGAAAUGCUUCGGAUAGUGGCAGGGGUGGGGGUUGCUAAGGAAAGGGUGGGAUGGGAGUGGGUAAAGAGUU,0.36
GUCCUGUGCUACACAUCGUAUGUACCGAAUCGGGGUUUUGGGUUUUGGGGUUUUGGGGAAAGUAUUAUGUUACGCCGUUCGGAUCUGCAC,0.506
ACCAUGCAGGUGGGCAUCUUUGGGAAGUGGGGCAAGGGGGGGAUAGAAAGGGGGGUAACACUUUGGGAACAGGUGGUCCCAGGUCGUUUC,0.499
UUCUCCUGCCCCGAAGCUCGCUGUGCGUGUGCGUGUGUGUGUCCCUCCGCCAACGCCGCCACCUCAGCCCGGCAAAUGAACUCCGUCCGA,0.442
GUCCUGUGCUACACAUCGUAUGUACCGAAUCGGGCCCCCCGGCCCCCCGGCCCCCCGGAAAGUAUUAUGUUACGCCGUUCGGAUCUGCAC,0.0264
AGUCCUGUGCUACACAUCGUAUGUACCGAAUCGGAAAGGUUUUUUUGGAAAAAAAGGAAAGUAUUAUGUUACGCCGUUCGGAUCUGCACU,-1.3
AGUCCUGUGCUACACAUCGUAUGUACCGAAUCGGGGAAAGGGGAGGGGUUUUUGGGGAAAGUAUUAUGUUACGCCGUUCGGAUCUGCACU,0.606
AAGUCCUGUGCUACACAUCGUAUGUACCGAAUCGGGGCCCGGCCCGGGGCCCGGGGAAAGUAUUAUGUUACGCCGUUCGGAUCUGCACUU,-1.09
GCAGGAAGUAAAAACAAAUGGAAAUGCUUCGGAUAGUGGCAGGGGUGGGGGUUGCUAAGGAAAGGGUGGGAUGGGAGUGGGUAAACAGUU,-0.165

# Further values, each from its own experiment
Molecule,target,assay,test system,setting,scale,quantity,result
"PhoQ, residues 284 288 289 292 302 303 SIHMAM","PhoP, residues 12 14 15 18 19 MHTVL (Escherichia coli, UniProt P23836)","Sort-seq, measured: YFP reporter",E. coli,"PhoQ-PhoP variant library, together with: 10 µM Mg2+","relative to: high Mg2+ state, higher = stronger signaling",fold induction,14.4

# Some of these lines once more (block 1):
Sequence,E-score
GAAGGTTA,0.0627
CTACCACA,0.119
